Results gathered from unrelated publications.
Values joined by “and” are separate records of one study, mostly repeats; a detail may differ. ± marks the error that the study gave.
GAP50: Glideosome-associated protein 50 (GAP50, Plasmodium falciparum, UniProt Q8I2X3)
FFAR4: Free fatty acid receptor 4 (FFAR4, Homo sapiens, UniProt Q5NUL3)
TRPM8: Transient receptor potential cation channel subfamily M member 8 (TRPM8, Homo sapiens, UniProt Q7Z2W7)
PDE1C isoform PDE1C2: Dual specificity calcium/calmodulin-dependent 3',5'-cyclic nucleotide phosphodiesterase 1C, isoform PDE1C2 (PDE1C, Homo sapiens, UniProt Q14123)
Nuclear receptor subfamily 4 group A member 2 LBD: Nuclear receptor subfamily 4 group A member 2, LBD (Homo sapiens, UniProt P43354)
NADH dehydrogenase [ubiquinone] iron-sulfur protein 7, mitochondrial/NADH dehydrogenase [ubiquinone] iron-sulfur protein 2, mitochondrial/MT-ND1: NADH dehydrogenase [ubiquinone] iron-sulfur protein 7, mitochondrial/NADH dehydrogenase [ubiquinone] iron-sulfur protein 2, mitochondrial/MT-ND1 (Homo sapiens, UniProt O75251+O75306+P03886)
Maoa: Amine oxidase [flavin-containing] A (Maoa, Rattus norvegicus, UniProt P21396)
Kir3.1/Kir3.2: Kir3.1/Kir3.2 (Homo sapiens, UniProt P48051+P48549)

For `CN1CCC(NCc2cccc(-c3ccc(S(=O)(=O)NCc4ccccc4)cc3)c2)CC1`, the kon was 85200 M⁻¹ s⁻¹ (GAP50; binding, surface plasmon resonance; 1:1 binding model).
With `O=C(CN(CCCCI)CCCN1CCN(C2CCCCC2)CC1)Nc1ccc(C(=O)c2ccccc2)cc1` the Ki ratio was 3.84 (TMEM97 (Homo sapiens, UniProt Q5BJF2); radioligand binding; RT-4 cell membranes; reference: sigma1 Ki over sigma2 Ki).
`O=C(COP(=O)(O)O)[C@@H](O)[C@H](O)[C@H](O)COP(=O)(O)O` — result for “thermal stability ratio”: 0.543 and 0.895 and 0.318 (Cleavage and polyadenylation specificity factor subunit 2 (Homo sapiens, UniProt Q9P2I0); thermal proteome profiling, refers to: CPSF2; HepG2 cell lysate; concentration not given, 57 over 37 °C; reference: compound over control).
The agonist effect of `O=c1cc(NCCc2ccc(Cl)cc2Cl)[nH]c(=O)[nH]1` is reported as 1 ± 1% (FFAR4; agonist, β-arrestin recruitment; CHO cells; 10 µM; reference: 30 µM TUG-891).
The EC of `Cc1ccc(C(=O)NCc2ccc(CNS(=O)(=O)c3ccccc3)cc2)cc1` is reported as 100 nM (CXCR4 (Homo sapiens, UniProt P61073); binding, inhibitor, competitive binding; MDA-MB-231; together with: biotinylated TN14003).
The remaining activity of `Nc1[nH]nc2nnc(-c3c(-c4ccccc4)nn4ccccc34)cc12` is reported as 73.7 ± 9.09% (TRPM8; antagonist; HEK293; 5 µM; reference: control).
The relative inhibition of `CC(C)[C@H](NC(=O)c1cc(-c2cnn3cc(-c4ccc(OCCN5CCCCC5)cc4)cnc23)cs1)C(F)(F)F` is reported as 0.0568 (TNIK (Homo sapiens, UniProt Q9UKE5); radiometric kinase; 15 nM; reference: TNIK over ULK1).
`CCCCCCNc1cc(=O)[nH]c(=O)n1C` gave an inhibition of 19 ± 7% (FFAR4; antagonist, β-arrestin recruitment; CHO cells; 10 µM).
`O=C1O/C(=C\c2cc(F)ccc2OCCCN2CCOCC2)c2cc(Cc3cccc(F)c3)[nH]c(=O)c21` has a ligand efficiency of 0.3 (PDE1C isoform PDE1C2; enzyme activity, inhibitor; together with: 3H-cGMP substrate).
`CC[C@H](C)C(=O)O[C@H]1C[C@H](O)C=C2C=C[C@H](C)[C@H](CC[C@@H](O)C[C@@H](O)CC(=O)O)[C@H]21` has an activation of 1.18 fold (Nuclear receptor subfamily 4 group A member 2 LBD; reporter gene, Gal4 hybrid reporter; 10 µM; reference: vehicle).
`COc1cc(F)ccc1-c1ncnc(Nc2cccc(C[S@](C)(=N)=O)c2)n1` gave a remaining activity of 82% (WNK2 (Homo sapiens, UniProt Q9Y3S1); kinase activity; 10 µM, together with: 10 µM ATP).
`NC(=O)NOCCCCCCCCCCCCCCCC[P+](c1ccccc1)(c1ccccc1)c1ccccc1.O=C([O-])C(F)(F)F`: “oxygen consumption rate” 9.68 ± 1.36% (NADH dehydrogenase [ubiquinone] iron-sulfur protein 7, mitochondrial/NADH dehydrogenase [ubiquinone] iron-sulfur protein 2, mitochondrial/MT-ND1; complex I-dependent respiration, Seahorse XF96; HCT-116; 5 µM, 24 h; reference: control).
With `CC[C@@H]1[C@H](F)C(=O)N[C@@H]1COc1nccc2cc(C(N)=O)c(OC)cc12` the inhibition was 3.8% (MAP3K11 (Homo sapiens, UniProt Q16584); ATP-site probe binding, ActivX profiling, refers to: MLK3; THP-1 cell lysate; 0.01 mM, Lys1 site).
The activation of `CCN1CCN(c2cc(N3CCN(CC)CC3)nc(NCCNc3ccnc4cc(Cl)ccc34)n2)CC1` is reported as 2.12 fold (Nuclear receptor subfamily 4 group A member 2 LBD; reporter gene, Gal4 hybrid reporter; 20 µM; reference: vehicle).
`COc1cc(O)c2c(c1)oc(=O)c1c3cc(O)c(O)cc3oc21` gave a β-Sheet content of 40.6% (MAL12 (Saccharomyces cerevisiae S288c, UniProt P53341); circular dichroism; molar ratio 1:1).
`O=C(CCCc1ccccc1)C(=O)NCCc1ccc(Oc2ccc(C(F)(F)F)cn2)cc1`: “probe-enriched protein abundance” 355000 a.u. (Lipe (Mus musculus, UniProt P54310); inhibitor, refers to: LIPS; mouse, BAT cytosol proteome; 10 µM; reference: DMSO, lower = stronger inhibition).
For `CCCC[C@H](NC(=O)[C@H](C)c1c(C)[nH]c2ccc(O)cc12)c1ncc(-c2cc3ccccc3nc2OC)[nH]1`, the Hill coefficient was 1.1 (Adra1b (Rattus norvegicus, UniProt P15823); rat).
`CC1=NN(c2ccc(C)cc2)C(=O)C1=NNc1ccc(S(N)(=O)=O)cc1` has an inhibition of 26.7% (Alpha-amylase (Bos taurus, UniProt Q3MHH8); enzyme activity, inhibitor, glucose oxidase; 200 µg/mL, together with: dextrin).
The Hill slope of `COc1ccccc1Nc1cccc2nccnc12` is reported as 1.3 (3-oxoacyl-[acyl-carrier-protein] reductase FabG (fabG, Pseudomonas aeruginosa, UniProt O54438); enzyme activity, inhibitor, NADPH fluorescence; reverse reaction, together with: 3-OH-decanoyl-NAC, NADP).
For `O=C(COc1ccc(C2CCC(=O)NC2=O)cc1)NCCCCCCN1CCc2c(c3ccccc3n2Cc2ccc(C(=O)NO)cc2)C1` (stereo not drawn), the degradation was 41% (HDAC10 (Homo sapiens, UniProt Q969S8); degrader, western blot; MM1.S; 5 µM, 24 h).
`CCOC(=O)c1c(C)[nH]c(/C=C2\C(=O)Nc3ccccc32)c1C` gave a remaining activity of 91.2 ± 10.8% (TRPM8; antagonist; HEK293; 5 µM; reference: control).
For `NCc1ccc(Br)cc1`, the kcat was 1.03 ± 0.0167 s⁻¹ (Maoa; substrate; pH 7.5, 25 °C, α,α-protio substrate).
`NC(=O)NOCCCCCCCCCC[P+](c1ccccc1)(c1ccccc1)c1ccccc1.O=C([O-])C(F)(F)F` — result for “oxygen consumption rate”: 90.2 ± 6.64% (NADH dehydrogenase [ubiquinone] iron-sulfur protein 7, mitochondrial/NADH dehydrogenase [ubiquinone] iron-sulfur protein 2, mitochondrial/MT-ND1; complex I-dependent respiration, Seahorse XF96; HCT-116; 3 µM, 24 h; reference: control).
`C[N+]1(C)CCC[C@H]1C(=O)[O-]` has a thermal shift of 11.5 °C (uncharacterized protein (Pelagibacter ubique, UniProt Q4FKZ8); differential scanning fluorimetry; Candidatus Pelagibacter ubique; in-house screen).
For `CNc1nnc(Sc2cnn(-c3ccccc3)c(=O)c2Cl)s1`, the koff was 0.165 s⁻¹ (GAP50; binding, surface plasmon resonance; 1:1 binding model).
For `O=c1cc(-c2ccc(O)c(O)c2)oc2cc(O[C@@H]3O[C@H](CO)[C@@H](O)[C@H](O)[C@H]3O)cc(O)c12`, the koff was 0.117 ± 0.104 s⁻¹ (Heat shock protein HSP 90-alpha, N-terminal domain (HSP90AA1, Homo sapiens, UniProt P07900); SPR, two-state model; N-terminal domain).
`O=c1cc(NCCc2cccc(Cl)c2)[nH]c(=O)[nH]1` has an agonist effect of 1 ± 1% (FFAR4; agonist, β-arrestin recruitment; CHO cells; 10 µM; reference: 30 µM TUG-891).
`O=c1nc(SCc2cc(F)cc(C(F)(F)F)c2)nc(SCc2ccc3sccc3c2)[nH]1` — result for “ATP hydrolysis rate”: 1.52 µM/min and 2.02 µM/min (TOP2A (Homo sapiens, UniProt P11388); ATPase activity; 7.8 µM, together with: ATP 2 mM).
`NC(=O)NOCCCCCCCCCCCCCC[P+](c1ccccc1)(c1ccccc1)c1ccccc1.O=C([O-])C(F)(F)F` — result for “oxygen consumption rate”: 53.5 ± 3.18% (NADH dehydrogenase [ubiquinone] iron-sulfur protein 7, mitochondrial/NADH dehydrogenase [ubiquinone] iron-sulfur protein 2, mitochondrial/MT-ND1; complex I-dependent respiration, Seahorse XF96; HCT-116; 1 µM, 24 h; reference: control).
With `CCc1nc2ccccc2n1C[C@H](O)COc1cc(C)ccc1Cl` the kon was 23800 M⁻¹ s⁻¹ (GAP50; binding, surface plasmon resonance; 1:1 binding model).
For `CCCCCCCCCNc1cc(=O)[nH]c(=O)[nH]1`, the inhibition was 26 ± 2% (FFAR4; antagonist, β-arrestin recruitment; CHO cells; 10 µM).
`COc1c(Nc2cc(C(F)(F)F)cc(C(F)(F)F)c2)c(=O)c1=O` has a Hill slope of 1.9 (CD209 antigen (CD209, Homo sapiens, UniProt Q9NNX6); binding, grating-coupled interferometry; Man(α1,2)Man-PEG3 chip; 2 h, no Tris).
`NC/C(=C\F)COc1cccc(Cn2c(=S)[nH]c(=O)c3[nH]cnc32)c1` gave an H2O2 concentration of -35.3 µM (Myeloperoxidase (MPO, Homo sapiens, UniProt P05164); H2O2 consumption, inhibitor, H2O2 electrode; 10 µM, 0 s).
With `CC(C)CCNc1cc(=O)[nH]c(=O)[nH]1` the activation was 0% (FFAR4; agonist, β-arrestin recruitment; CHO cells; 10 µM).
For `Nc1ncnc2c1ncn2[C@@H]1O[C@H](COP(=O)(O)CP(=O)(O)OP(=O)(O)O)[C@@H](O)[C@H]1O`, the calcium influx was 0% (P2X purinoceptor 1 (P2RX1, Homo sapiens, UniProt P51575, S286A); calcium influx; 10 nM; reference: ionomycin response).
With `Nc1ncnc2c1cnn2-c1ccccc1` the remaining activity was 94.1 ± 2.51% (TRPM8; antagonist; HEK293; 5 µM; reference: control).
`Cc1ccc(C(=O)Nc2ccc3ccccc3c2)o1` has a current potentiation of 1.64 fold (Otop1 (Mus musculus, UniProt Q80VM9); proton current, potentiator, whole-cell patch-clamp; HEK-293T; 10 µM, pH 5.5; reference: current before compound).
With `Nc1nc2c(ncn2[C@@H]2O[C@H](COP(=O)(O)O)[C@@H](O)[C@H]2O)c(=O)[nH]1` the reaction velocity was 0.0218 µM/s and -0.0209 µM/s and 0.0145 µM/s (GUK1 (Homo sapiens, UniProt Q16774); enzyme activity, NADH-coupled; 7.812 µM, together with: NaCl 150 mM).
With `NC(N)=Nc1ccc(-c2ccc(-c3ccc(N=C(N)N)c(Cl)c3)o2)cc1Cl` the kon was 1560 M⁻¹ s⁻¹ (GAP50; binding, surface plasmon resonance; 1:1 binding model).
`Cc1cc(NC(=O)C2CCc3ccccc3O2)n(C2CCS(=O)(=O)C2)n1` (stereo not drawn) has an Emax of 45% (Kir3.1/Kir3.2; thallium flux, activator; HEK293; reference: standard compound).
`O=c1cc(NCCc2ccccc2Cl)[nH]c(=O)[nH]1` has an activation of 1 ± 1% (FFAR4; agonist, β-arrestin recruitment; CHO cells; 10 µM).
`NCCCCC(=O)O`: “normalised MST signal” -0.00668 (SLC6A6 (Homo sapiens, UniProt P31641, G62A); binding, microscale thermophoresis; 30.5 nM, room temperature, together with: 50 nM labelled protein; higher = more binding).
For `Cc1cc2c(c(=O)[nH]1)C(=O)O/C2=C\c1cc(Br)ccc1OC(C)C`, the ligand efficiency was 0.39 (PDE1C isoform PDE1C2; enzyme activity, inhibitor; together with: 3H-cGMP substrate).
For `O=Nc1c(NCCCc2ccccc2)[nH]c(=O)[nH]c1=O`, the activation was 1 ± 1% (FFAR4; agonist, β-arrestin recruitment; CHO cells; 10 µM).
Under “Stern-Volmer quenching constant”, `CC1=C[C@H](O)CC(C)(C)[C@H]1/C=C/C(C)=C/C=C/C(C)=C/C=C/C=C(C)/C=C/C=C(C)/C=C/C1=C(C)C[C@@H](O)CC1(C)C` is recorded as 19300 ± 3700 L/mol (Beta-lactoglobulin (LGB, Bos taurus, UniProt P02754); fluorescence quenching; 308 K).
With `[2H]C([2H])(N)c1ccc(C(F)(F)F)cc1` the pKa1 was 8.1 ± 0.2 (Maoa; kcat/Km ascending limb free E S, substrate; pH 6.5-9.5).
Under “relative binding affinity”, `CCCC(=O)Nc1ncnc2c1ncn2[C@@H]1O[C@@H]2COP(=O)(O)O[C@H]2[C@H]1O` is recorded as 0.0043 (anti-cAMP antibody; antibody binding, competitive cAMP EIA; concentration not given, acetylated samples; reference: EC50 cAMP over EC50 cpd, higher = stronger binding).
For `O=C(NC1CCC1)c1ccc2nc(-c3cccc(NS(=O)(=O)NCCN4CCCCC4)c3)cn2c1`, the protein level was 83% (Protein ENL (MLLT1, Homo sapiens, UniProt Q03111); degrader, immunoblot, refers to: MLLT1; 10 µM, 72 h; reference: DMSO control).
For `Cc1cc(NC(=O)C2CCc3cc(Cl)ccc3O2)n(C2CCS(=O)(=O)C2)n1` (stereo not drawn), the Emax was 63% (Kir3.1/Kir3.2; thallium flux, activator; HEK293; reference: standard compound).
The inhibition of `O=c1cc(NCCc2ccc(F)cc2)[nH]c(=O)[nH]1` is reported as 11 ± 3% (FFAR4; antagonist, β-arrestin recruitment; CHO cells; 10 µM).
`C=CC(=O)N1CCC(COCC(=O)N2CCN(c3nc(-c4cnc(N)nc4C(F)F)nc(N4CCOC[C@@H]4C)n3)CC2)CC1` has a remaining binding of 100% (CAMK1D (Homo sapiens, UniProt Q8IU85); KINOMEscan; 1 µM).
